# Experimental data from different studies.
# Parts stem from different laboratories: compare values within a part only.

# Set 1
# Target: Sal-like protein 4, full length isoform A (SALL4, Homo sapiens, UniProt Q9UJQ4, residues 1-1053)
# Sequence of UniProt Q9UJQ4 (whole entry, looked up): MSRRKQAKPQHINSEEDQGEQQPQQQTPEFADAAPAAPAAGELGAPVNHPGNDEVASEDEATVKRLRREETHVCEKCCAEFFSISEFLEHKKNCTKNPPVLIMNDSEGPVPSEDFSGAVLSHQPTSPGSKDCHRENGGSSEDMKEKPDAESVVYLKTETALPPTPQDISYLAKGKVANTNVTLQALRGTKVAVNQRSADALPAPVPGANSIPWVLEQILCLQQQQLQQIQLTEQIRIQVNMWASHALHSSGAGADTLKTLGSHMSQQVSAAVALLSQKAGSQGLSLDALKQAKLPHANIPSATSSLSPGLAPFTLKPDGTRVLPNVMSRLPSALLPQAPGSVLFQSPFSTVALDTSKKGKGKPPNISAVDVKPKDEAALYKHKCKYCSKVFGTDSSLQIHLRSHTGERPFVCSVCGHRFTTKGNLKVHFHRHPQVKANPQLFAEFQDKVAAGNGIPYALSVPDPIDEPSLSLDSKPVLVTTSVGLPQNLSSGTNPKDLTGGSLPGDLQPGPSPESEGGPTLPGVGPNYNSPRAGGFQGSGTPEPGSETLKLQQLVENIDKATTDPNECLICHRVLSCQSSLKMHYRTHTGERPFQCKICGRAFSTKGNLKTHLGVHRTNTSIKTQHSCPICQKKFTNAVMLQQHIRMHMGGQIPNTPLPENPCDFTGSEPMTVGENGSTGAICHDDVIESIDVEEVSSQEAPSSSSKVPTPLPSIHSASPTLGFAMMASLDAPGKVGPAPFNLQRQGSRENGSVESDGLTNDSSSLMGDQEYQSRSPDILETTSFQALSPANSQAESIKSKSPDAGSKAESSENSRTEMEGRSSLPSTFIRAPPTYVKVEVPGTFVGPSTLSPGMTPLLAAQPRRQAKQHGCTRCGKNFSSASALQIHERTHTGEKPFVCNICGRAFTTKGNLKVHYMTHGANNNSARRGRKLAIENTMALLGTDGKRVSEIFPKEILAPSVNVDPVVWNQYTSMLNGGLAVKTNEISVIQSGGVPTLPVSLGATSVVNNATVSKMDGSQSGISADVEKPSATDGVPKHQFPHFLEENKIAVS
# Method: universal PBM
# Form: double-stranded DNA, one strand shown
# Matrix: in vitro
# Concentration: 600 nM
# Setting: 8-mer, flanks averaged, mean of replicates
# Direction: higher = stronger binding
Sequence,E-score
CGCTCTTA,-0.0771
GACTTGAA,0.0153
CATATCCG,0.0839
ACGCCTGA,-0.0448
CTCCCTGC,-0.264
CTGGTTAA,0.166
AAGCCGTA,0.0588
AAGGATAA,0.117
ACCTCGGG,-0.267
GACGTATA,0.144
AGCTTCGG,-0.158
GATGCAAC,-0.0722
GCTGCGCC,-0.389
AAGCTTTG,0.0512
CCGTTGGC,-0.213
CCTAAAGG,-0.0913
AGTATCGG,0.0783
CGACGCAG,-0.326
CGGTACCG,-0.29
GACGATCC,-0.14
CGTACTCA,-0.0379

# Set 2
# Target: RNA binding protein fox-1 homolog 2, RRM domain, GST-SBP tag (RBFOX2, Homo sapiens, UniProt O43251-10, residues 100-194)
# Method: RNA Bind-n-Seq
# Form: RNA
# Matrix: in vitro
# Concentration: 365 nM
# Setting: natural RNA segment, single round, ends assumed
# Reference: no-protein control
# Direction: higher = stronger binding
# Shared flanks, not repeated: GGGAGUUCUACAGUCCGACGAUC … UGGAAUUCUCGGGUGCCAA
# Construct (chain): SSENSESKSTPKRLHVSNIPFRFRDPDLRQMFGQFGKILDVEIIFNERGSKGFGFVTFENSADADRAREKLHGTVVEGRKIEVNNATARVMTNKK
Sequence,RBNS enrichment (R)
GUUUGAGAGUAUAUGUUAAUGACUAUUUUUUUUAAAAAUGUUCUAUUGAAACCAGUGUAACAGCACAAAGAGCUCUAAUGUGUAACACUUCCUCUGAAAUGGAUAUAAAG,0.533
ACUGUUCACUUCCUUGUUGUAUUGCAGUAAAAGAUUUAAAACAACCAUUGCAUGUUUGCUUUUGAUGUAUCCCUUUGUGAAAUCAGCACUUCUGGGGCCAAUGAAGAAAC,7.65
CUCUGAGACCUCUGCAAAGAUGUCCCUUUUAUGCCCUUGACCUUGACUCACCAUGGGCUGCUGGGGUGUCGGGAGAAGCCACACCCAACAUGCCCAUUAGCAGAGGCUGC,0.39
AGGACCCAGACCGGUGUCUUGCUCUAGGGCAACCCAGGGCAGAGGGGCCAGGUCUGCCCAGCGUUUACCACUGCUGUCAAGCCACAGCCCUUGGCCACCAUACGGGCCAU,0.171
AAGUGACCUCCUUUUCCUUAUUUAUAUUUCCUGGCCACUAUUCAGUUGUAAGAUAACAUUUGAAAUGUGAGACUAUAUGGUUUUUAAUAAAAUGUUUGAUGUUUUAUCCC,0.579
CUUGUAUCUUUAUUUGGUAUUCAUACUACUAGUAGCAAAAUACAGGUUUUUUGUUUUGUUUUGUUUUGUUUUGGCUUCAUAGAGUAUCUCAAAUUGAAACUUUUCUGCAC,0.623
UUAUACCUGGACAAUUUAGAUGUUUAUCAAAGGUCUUUUAUGGGGAAGAAAGCAAAUGUGUAAAACAGUAGACGUGUGACGUUUAUGAGUAAUGCUGGCUCUGAACAAAC,0.505
UGAAGCAGCACUGUGAGUGGUUCAAGCACACUGGAAUAUAAAACAGUCAUGGCCUGAGAUGCAGGUGAUGCCAUUACAGAACCAAAUCGUGGCACGUAUUGCUGUGUCUC,0.659

# Set 3
# Substance: PhoQ, residues 284 288 289 292 302 303 GASLAW
# Method: Sort-seq
# Item: YFP reporter
# Matrix: E. coli
# Setting: PhoQ-PhoP variant library
# Together with: 10 µM Mg2+
# Reference: high Mg2+ state
# Direction: higher = stronger signaling
target,fold induction
"PhoP, residues 12 14 15 18 19 GMGLL (Escherichia coli, UniProt P23836)",4.26
"PhoP, residues 12 14 15 18 19 QQAYL (Escherichia coli, UniProt P23836)",13.1
"PhoP, residues 12 14 15 18 19 LFHKL (Escherichia coli, UniProt P23836)",10.7

# Set 4
# Target: Histone acetyltransferase KAT6A, winged helix 1, GST fusion (KAT6A, Homo sapiens, UniProt Q92794, residues 1-85)
# Method: protein binding microarray
# Form: double-stranded DNA, one strand shown
# Matrix: in vitro
# Concentration: not given
# Setting: 8-mer, flanks averaged, mean of 2 arrays, mostly near background
# Reference: not given
# Direction: higher = stronger binding
# Target sequence (chain): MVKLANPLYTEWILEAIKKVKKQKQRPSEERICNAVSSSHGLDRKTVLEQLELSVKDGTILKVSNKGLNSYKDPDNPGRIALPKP
Sequence,E-score
ATTGACGC,-0.0392
GACCATTA,-0.0428
CTGTGGGA,-0.17
GACAGGGC,0.0959
AGAGGGTG,-0.105
GATTTCCC,-0.0169
CGTGCTTA,-0.000825
AATCTGAC,-0.163
ATCTGGGC,-0.013
GTGCGCAA,0.288
AGTAGGGG,-0.0606
ACCCGAGC,0.225
AACGAACA,-0.0171
CTAAAATC,-0.148
AAAGATAT,-0.184
CACTGGTA,-0.126
AATCTGTC,-0.16
ACGAACAT,-0.0608

# Repeated from above (set 2):
Sequence,RBNS enrichment (R)
GUUUGAGAGUAUAUGUUAAUGACUAUUUUUUUUAAAAAUGUUCUAUUGAAACCAGUGUAACAGCACAAAGAGCUCUAAUGUGUAACACUUCCUCUGAAAUGGAUAUAAAG,0.533
ACUGUUCACUUCCUUGUUGUAUUGCAGUAAAAGAUUUAAAACAACCAUUGCAUGUUUGCUUUUGAUGUAUCCCUUUGUGAAAUCAGCACUUCUGGGGCCAAUGAAGAAAC,7.65
CUCUGAGACCUCUGCAAAGAUGUCCCUUUUAUGCCCUUGACCUUGACUCACCAUGGGCUGCUGGGGUGUCGGGAGAAGCCACACCCAACAUGCCCAUUAGCAGAGGCUGC,0.39
AGGACCCAGACCGGUGUCUUGCUCUAGGGCAACCCAGGGCAGAGGGGCCAGGUCUGCCCAGCGUUUACCACUGCUGUCAAGCCACAGCCCUUGGCCACCAUACGGGCCAU,0.171
AAGUGACCUCCUUUUCCUUAUUUAUAUUUCCUGGCCACUAUUCAGUUGUAAGAUAACAUUUGAAAUGUGAGACUAUAUGGUUUUUAAUAAAAUGUUUGAUGUUUUAUCCC,0.579
CUUGUAUCUUUAUUUGGUAUUCAUACUACUAGUAGCAAAAUACAGGUUUUUUGUUUUGUUUUGUUUUGUUUUGGCUUCAUAGAGUAUCUCAAAUUGAAACUUUUCUGCAC,0.623
UUAUACCUGGACAAUUUAGAUGUUUAUCAAAGGUCUUUUAUGGGGAAGAAAGCAAAUGUGUAAAACAGUAGACGUGUGACGUUUAUGAGUAAUGCUGGCUCUGAACAAAC,0.505
UGAAGCAGCACUGUGAGUGGUUCAAGCACACUGGAAUAUAAAACAGUCAUGGCCUGAGAUGCAGGUGAUGCCAUUACAGAACCAAAUCGUGGCACGUAUUGCUGUGUCUC,0.659
